Assay results from different studies.
Numbered parts are unrelated; each lists some results of a single study.
Chain of UniProt P49841 (whole entry, looked up): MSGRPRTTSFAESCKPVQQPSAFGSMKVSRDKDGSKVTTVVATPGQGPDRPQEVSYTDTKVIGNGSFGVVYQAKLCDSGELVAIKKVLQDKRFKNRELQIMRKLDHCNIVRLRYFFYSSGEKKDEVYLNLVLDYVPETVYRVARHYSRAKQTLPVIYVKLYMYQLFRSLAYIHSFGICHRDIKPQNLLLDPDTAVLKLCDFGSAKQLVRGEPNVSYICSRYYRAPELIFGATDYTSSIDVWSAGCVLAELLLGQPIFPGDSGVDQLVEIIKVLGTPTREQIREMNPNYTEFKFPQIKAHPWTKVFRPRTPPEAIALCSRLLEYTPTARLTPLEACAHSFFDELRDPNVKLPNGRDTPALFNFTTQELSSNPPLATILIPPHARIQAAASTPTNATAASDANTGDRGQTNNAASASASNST
Chain of UniProt P00519 (whole entry, unmodified, looked up): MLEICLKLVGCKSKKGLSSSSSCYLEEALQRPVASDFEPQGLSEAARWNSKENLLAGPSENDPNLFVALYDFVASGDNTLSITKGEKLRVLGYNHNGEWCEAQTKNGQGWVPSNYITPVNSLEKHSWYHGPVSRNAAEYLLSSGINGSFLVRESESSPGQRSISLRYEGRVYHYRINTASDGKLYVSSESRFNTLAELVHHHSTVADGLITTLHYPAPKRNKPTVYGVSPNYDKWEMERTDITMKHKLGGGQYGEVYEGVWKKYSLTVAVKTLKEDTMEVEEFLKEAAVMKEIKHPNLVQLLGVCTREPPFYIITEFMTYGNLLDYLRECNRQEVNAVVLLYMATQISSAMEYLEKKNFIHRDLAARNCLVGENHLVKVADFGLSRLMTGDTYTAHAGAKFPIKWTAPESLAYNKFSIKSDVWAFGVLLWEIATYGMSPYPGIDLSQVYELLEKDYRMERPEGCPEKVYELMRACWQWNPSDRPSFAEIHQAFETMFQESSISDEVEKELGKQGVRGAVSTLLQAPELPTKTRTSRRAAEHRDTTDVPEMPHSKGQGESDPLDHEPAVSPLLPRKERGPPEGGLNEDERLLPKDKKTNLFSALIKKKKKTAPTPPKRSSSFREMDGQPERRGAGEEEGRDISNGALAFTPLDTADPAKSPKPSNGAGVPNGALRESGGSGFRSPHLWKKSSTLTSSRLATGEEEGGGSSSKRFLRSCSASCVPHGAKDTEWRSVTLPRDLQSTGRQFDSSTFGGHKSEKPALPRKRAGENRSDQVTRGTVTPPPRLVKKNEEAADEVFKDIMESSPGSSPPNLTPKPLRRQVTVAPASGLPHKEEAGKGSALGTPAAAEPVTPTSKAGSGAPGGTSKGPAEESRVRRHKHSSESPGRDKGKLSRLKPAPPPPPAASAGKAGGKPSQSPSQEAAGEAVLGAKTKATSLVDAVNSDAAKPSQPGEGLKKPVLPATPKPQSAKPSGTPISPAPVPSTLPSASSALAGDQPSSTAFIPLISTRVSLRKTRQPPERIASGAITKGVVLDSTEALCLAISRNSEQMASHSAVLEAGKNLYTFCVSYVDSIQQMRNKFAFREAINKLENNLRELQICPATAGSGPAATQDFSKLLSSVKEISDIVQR
Chain of UniProt P45985 (whole entry, looked up): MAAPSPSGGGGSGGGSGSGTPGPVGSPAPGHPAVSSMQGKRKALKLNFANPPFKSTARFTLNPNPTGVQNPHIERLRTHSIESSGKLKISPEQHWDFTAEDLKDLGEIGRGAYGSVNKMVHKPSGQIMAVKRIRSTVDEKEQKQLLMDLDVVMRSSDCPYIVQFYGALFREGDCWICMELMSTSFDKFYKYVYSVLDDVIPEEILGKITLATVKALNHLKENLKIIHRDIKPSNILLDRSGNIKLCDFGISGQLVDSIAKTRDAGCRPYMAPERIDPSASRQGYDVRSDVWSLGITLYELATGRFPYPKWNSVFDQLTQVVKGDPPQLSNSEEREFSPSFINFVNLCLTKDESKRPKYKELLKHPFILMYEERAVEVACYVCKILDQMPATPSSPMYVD
Chain of UniProt Q9BWU1 (whole entry, looked up): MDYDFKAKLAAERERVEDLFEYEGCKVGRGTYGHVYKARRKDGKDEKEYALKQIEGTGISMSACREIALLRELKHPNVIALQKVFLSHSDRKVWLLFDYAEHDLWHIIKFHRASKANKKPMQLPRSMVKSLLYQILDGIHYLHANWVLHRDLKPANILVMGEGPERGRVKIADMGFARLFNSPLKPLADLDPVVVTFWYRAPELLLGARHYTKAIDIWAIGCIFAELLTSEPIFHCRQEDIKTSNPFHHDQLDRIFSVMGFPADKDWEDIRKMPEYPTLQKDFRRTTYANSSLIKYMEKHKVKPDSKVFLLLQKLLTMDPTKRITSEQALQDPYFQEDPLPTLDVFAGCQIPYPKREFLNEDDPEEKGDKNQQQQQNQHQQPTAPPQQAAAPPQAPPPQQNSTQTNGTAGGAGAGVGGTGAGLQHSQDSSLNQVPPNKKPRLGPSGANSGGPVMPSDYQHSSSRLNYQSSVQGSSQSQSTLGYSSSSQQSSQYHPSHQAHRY
Chain of UniProt O43318 (whole entry, looked up): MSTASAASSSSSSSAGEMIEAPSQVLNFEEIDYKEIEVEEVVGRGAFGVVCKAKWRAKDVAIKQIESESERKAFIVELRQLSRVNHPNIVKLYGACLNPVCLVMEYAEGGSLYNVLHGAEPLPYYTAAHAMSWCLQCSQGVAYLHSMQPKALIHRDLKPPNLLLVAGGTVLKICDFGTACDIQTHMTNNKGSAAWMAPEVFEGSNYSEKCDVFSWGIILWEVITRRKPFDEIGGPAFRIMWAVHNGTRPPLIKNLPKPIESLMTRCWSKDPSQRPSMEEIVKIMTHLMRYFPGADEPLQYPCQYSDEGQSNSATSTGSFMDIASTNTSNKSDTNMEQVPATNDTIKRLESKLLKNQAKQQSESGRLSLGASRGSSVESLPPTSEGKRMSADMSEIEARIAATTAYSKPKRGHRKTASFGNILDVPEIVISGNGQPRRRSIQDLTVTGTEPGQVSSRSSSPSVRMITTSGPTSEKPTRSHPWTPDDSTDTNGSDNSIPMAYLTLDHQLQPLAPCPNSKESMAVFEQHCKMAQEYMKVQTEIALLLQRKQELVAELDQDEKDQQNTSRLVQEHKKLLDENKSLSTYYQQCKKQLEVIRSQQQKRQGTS
Chain of UniProt Q8N568 (whole entry, looked up): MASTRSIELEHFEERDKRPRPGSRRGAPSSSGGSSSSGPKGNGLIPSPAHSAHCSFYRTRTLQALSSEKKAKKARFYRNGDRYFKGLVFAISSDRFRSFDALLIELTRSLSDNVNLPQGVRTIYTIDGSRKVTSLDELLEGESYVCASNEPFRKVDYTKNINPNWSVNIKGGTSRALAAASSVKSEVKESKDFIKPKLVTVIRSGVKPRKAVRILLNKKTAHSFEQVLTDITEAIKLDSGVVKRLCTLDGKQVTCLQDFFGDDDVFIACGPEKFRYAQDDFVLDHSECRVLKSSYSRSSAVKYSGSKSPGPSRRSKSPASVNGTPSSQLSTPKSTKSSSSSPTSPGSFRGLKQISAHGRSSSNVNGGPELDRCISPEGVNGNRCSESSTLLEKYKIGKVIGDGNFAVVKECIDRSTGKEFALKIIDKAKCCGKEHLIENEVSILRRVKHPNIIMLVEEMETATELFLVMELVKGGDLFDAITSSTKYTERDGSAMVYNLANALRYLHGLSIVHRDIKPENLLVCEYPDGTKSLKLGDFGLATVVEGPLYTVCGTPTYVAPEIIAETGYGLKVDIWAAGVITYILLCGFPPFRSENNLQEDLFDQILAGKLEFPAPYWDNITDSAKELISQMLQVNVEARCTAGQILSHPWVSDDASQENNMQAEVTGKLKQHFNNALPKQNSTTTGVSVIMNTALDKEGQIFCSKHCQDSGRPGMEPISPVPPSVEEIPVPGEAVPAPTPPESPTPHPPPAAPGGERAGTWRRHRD
Chain of UniProt O00238 (whole entry, looked up): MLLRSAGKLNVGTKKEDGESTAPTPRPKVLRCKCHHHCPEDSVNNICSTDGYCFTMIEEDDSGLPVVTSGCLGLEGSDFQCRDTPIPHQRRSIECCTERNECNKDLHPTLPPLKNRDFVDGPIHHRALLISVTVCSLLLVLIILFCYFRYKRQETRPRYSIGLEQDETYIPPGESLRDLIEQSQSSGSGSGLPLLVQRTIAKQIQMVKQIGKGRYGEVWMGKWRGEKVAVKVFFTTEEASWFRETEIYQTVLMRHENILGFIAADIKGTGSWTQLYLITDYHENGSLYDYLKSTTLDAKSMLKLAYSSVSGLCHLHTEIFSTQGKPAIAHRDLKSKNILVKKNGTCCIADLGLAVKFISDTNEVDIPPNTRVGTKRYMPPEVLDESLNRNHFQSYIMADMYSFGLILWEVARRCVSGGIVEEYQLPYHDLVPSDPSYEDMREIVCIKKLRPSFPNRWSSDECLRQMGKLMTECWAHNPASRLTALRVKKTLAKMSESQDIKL

Block 1 — method: RNAcompete; molecule type: RNA; matrix: in vitro; concentration: 20 nM; notes: 7-mer, probes averaged, single round; baseline: mean of 7-mers; direction: higher = stronger binding
Target: PABPC1L2, full length, GST fusion (mouse, UniProt A0ABA7IW68)
Target sequence (chain): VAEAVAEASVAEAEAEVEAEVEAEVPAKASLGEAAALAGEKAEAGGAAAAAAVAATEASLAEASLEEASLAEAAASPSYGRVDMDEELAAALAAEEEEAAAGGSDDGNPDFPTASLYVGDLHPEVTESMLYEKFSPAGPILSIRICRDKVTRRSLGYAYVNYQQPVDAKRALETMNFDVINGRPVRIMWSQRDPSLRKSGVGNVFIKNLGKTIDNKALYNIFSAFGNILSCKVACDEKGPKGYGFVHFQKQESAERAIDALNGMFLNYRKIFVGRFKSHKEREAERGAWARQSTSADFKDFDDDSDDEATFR
`AGCGCUU` has a 7-mer Z-score of -0.306.
`UUCGAGG` has a 7-mer Z-score of 0.017.
The 7-mer Z-score of `CUGCUUG` is reported as -0.266.
`ACCAGGG` gave a 7-mer Z-score of -0.0554.
For `AUUGUCG`, the 7-mer Z-score was -0.19.
With `UUACCGC` the 7-mer Z-score was -0.324.
The 7-mer Z-score of `AGGGGAU` is reported as 0.428.
`AACACCC` has a 7-mer Z-score of 0.0768.

Block 2 — concentration: 1 µM
SMILES: O=S(=O)(NC1CCC(c2cc(F)ccc2F)(S(=O)(=O)c2ccc(Cl)cc2)CC1)C(F)(F)F (stereo not shown)
For Dual specificity protein kinase TTK (TTK, Homo sapiens, UniProt P33981); cell-free assay, competition with immobilised ligand: remaining binding read 70%.
Dual specificity mitogen-activated protein kinase kinase 4 (MAP2K4, Homo sapiens, UniProt P45985); cell-free assay, competition with immobilised ligand — remaining binding: 76%.
For BMP-2-inducible protein kinase (BMP2K, Homo sapiens, UniProt Q9NSY1); cell-free assay, competition with immobilised ligand: remaining binding read 92%.
It gave 100% for remaining binding (Tyrosine-protein kinase ABL1, non-phosphorylated (ABL1, Homo sapiens, UniProt P00519, F317L); cell-free assay, competition with immobilised ligand).
For Mitogen-activated protein kinase kinase kinase 19 (MAP3K19, Homo sapiens, UniProt Q56UN5); cell-free assay, competition with immobilised ligand: remaining binding read 84%.
It gave 100% for remaining binding (Glycogen synthase kinase-3 beta (GSK3B, Homo sapiens, UniProt P49841); cell-free assay, competition with immobilised ligand).
The remaining binding was 100% (Serine/threonine-protein kinase 32C (STK32C, Homo sapiens, UniProt Q86UX6); cell-free assay, competition with immobilised ligand).
For Hepatocyte growth factor receptor (MET, Homo sapiens, UniProt P08581, Y1235D); cell-free assay, competition with immobilised ligand: remaining binding read 97%.
For Cyclin-dependent kinase 19 (CDK19, Homo sapiens, UniProt Q9BWU1); competition binding: remaining binding read 100%.
The remaining binding was 100% (Dual specificity tyrosine-phosphorylation-regulated kinase 1B (DYRK1B, Homo sapiens, UniProt Q9Y463); cell-free assay, competition with immobilised ligand).
It gave 100% for remaining binding (Mitogen-activated protein kinase kinase kinase kinase 2 (MAP4K2, Homo sapiens, UniProt Q12851); cell-free assay, competition with immobilised ligand).
It gave 100% for remaining binding (Bone morphogenetic protein receptor type-1B (BMPR1B, Homo sapiens, UniProt O00238); cell-free assay, competition with immobilised ligand).
For AP2-associated protein kinase 1 (AAK1, Homo sapiens, UniProt Q2M2I8); binding: remaining binding read 96%.
Wee1-like protein kinase (WEE1, Homo sapiens, UniProt P30291); cell-free assay, competition with immobilised ligand — remaining binding: 90%.
Mitogen-activated protein kinase kinase kinase 15 (MAP3K15, Homo sapiens, UniProt Q6ZN16); cell-free assay, competition with immobilised ligand — remaining binding: 78%.
Epidermal growth factor receptor (EGFR, Homo sapiens, UniProt P00533, del746-750); cell-free assay, competition with immobilised ligand — remaining binding: 80%.
It gave 100% for remaining binding (Casein kinase I isoform alpha-like (CSNK1A1L, Homo sapiens, UniProt Q8N752); cell-free assay, competition with immobilised ligand).

Block 3 — effect on: enzyme activity; concentration: 5 µM; baseline: untreated control
Structure (SMILES): O=C(Nc1cnn(-c2csc(C(=O)NC3COC3)c2)c1)Nc1c(F)cccc1Cl
Dual specificity mitogen-activated protein kinase kinase 1 (MAP2K1, Homo sapiens, UniProt Q02750) — remaining activity: 107%.
The remaining activity was 92% (Serine/threonine-protein kinase DCLK2 (DCLK2, Homo sapiens, UniProt Q8N568)).
Mitogen-activated protein kinase kinase kinase 7 (MAP3K7, Homo sapiens, UniProt O43318) — remaining activity: 109%.

Block 4 — method: protein-binding microarray; molecule type: double-stranded DNA, one strand shown; matrix: in vitro; concentration: not given; direction: higher = stronger binding
Target: Protein max, full length (MAX, Homo sapiens, UniProt P61244-2, residues 1-151)
Notes: k-mer, scored over probes, only values ≥0.25
For `ACGAGGGG`, the E-score was 0.354.
With `CATGCCCC` the E-score was 0.348.
`CATGGACA` gave an E-score of 0.323.
The E-score of `CATGCACG` is reported as 0.396.
With `ATGCATGC` the E-score was 0.403.
With `GTGCACAC` the E-score was 0.286.
With `ACACCATG` the E-score was 0.347.
`ACGTGGGC` gave an E-score of 0.444.

Mixed results
`Cn1c(/C=C2\SC(=O)NC2=O)cc2c1-c1ccccc1OC2` gave a remaining compound of 5.78% (mouse, microsomes or S9; 2 µM, 0.5 h).

Repeated from above (block 1):
The 7-mer Z-score of `CUGCUUG` is reported as -0.266.
With `UUACCGC` the 7-mer Z-score was -0.324.
`ACCAGGG` gave a 7-mer Z-score of -0.0554.
